Measurements collected from several papers.
Each numbered part is a random draw from the data of one study; scales do not carry over between parts. Positions count from the first letter of the parent shown.
Sequence of UniProt P11229 (whole entry, looked up): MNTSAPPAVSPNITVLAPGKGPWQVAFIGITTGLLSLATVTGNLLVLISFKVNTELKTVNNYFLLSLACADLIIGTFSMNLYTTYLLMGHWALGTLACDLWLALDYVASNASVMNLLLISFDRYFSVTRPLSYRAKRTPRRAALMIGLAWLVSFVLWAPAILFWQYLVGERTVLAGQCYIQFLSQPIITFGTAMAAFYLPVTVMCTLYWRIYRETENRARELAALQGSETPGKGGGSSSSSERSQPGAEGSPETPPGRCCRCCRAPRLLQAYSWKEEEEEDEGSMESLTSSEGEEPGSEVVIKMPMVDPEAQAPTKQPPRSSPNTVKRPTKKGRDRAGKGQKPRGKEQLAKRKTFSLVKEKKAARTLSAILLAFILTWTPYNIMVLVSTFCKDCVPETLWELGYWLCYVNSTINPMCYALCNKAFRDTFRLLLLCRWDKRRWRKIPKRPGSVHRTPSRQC
Sequence of UniProt P28223 (whole entry, looked up): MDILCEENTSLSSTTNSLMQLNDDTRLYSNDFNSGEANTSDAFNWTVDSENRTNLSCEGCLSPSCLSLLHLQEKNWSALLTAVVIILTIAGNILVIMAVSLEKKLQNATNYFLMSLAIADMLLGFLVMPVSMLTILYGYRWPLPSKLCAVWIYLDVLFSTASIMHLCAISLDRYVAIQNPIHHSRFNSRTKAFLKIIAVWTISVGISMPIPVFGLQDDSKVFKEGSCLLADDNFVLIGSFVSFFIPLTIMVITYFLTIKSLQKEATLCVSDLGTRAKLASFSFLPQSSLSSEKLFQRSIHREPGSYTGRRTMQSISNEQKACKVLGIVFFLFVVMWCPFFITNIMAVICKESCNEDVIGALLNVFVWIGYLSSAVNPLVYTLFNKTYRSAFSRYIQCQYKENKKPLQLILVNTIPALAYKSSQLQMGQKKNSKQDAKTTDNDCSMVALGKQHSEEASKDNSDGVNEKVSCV

Study 1
Target: CCNA2, cyclin fold, Cln2 fusion (human)
Method: yeast growth competition, sequencing
Matrix: yeast
Notes: strong parent motif
Relative to: not given
Reading: higher = stronger binding
Starting sequence: viral docking peptide; TSVRRALFTGGSD; partner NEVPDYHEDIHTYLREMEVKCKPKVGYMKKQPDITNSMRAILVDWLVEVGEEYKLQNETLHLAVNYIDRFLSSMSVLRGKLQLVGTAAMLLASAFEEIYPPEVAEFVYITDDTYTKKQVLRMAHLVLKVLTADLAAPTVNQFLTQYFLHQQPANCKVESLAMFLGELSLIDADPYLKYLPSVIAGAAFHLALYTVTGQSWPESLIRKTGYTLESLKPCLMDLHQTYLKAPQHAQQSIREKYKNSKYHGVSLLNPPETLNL
Substitution	normalised enrichment score
TSVRRALFTGLSD [G11L]	6.18
TSVRRDLFTGGSD [A6D]	1.87
TSVRRALFTGGYD [S12Y]	6.24
TSVRRALFLGGSD [T9L]	6.18
TSVRAAAFTGGSD [R5A L7A]	-0.166
TSVRHALFTGGSD [R5H]	1.26
TSVRRALFTMGSD [G10M]	5.87
TSVRSALFTGGSD [R5S]	0.409

Study 2
Target: Leukocyte tyrosine kinase receptor (LTK, Homo sapiens, UniProt P29376)
Sequence of UniProt P29376 (whole entry, looked up): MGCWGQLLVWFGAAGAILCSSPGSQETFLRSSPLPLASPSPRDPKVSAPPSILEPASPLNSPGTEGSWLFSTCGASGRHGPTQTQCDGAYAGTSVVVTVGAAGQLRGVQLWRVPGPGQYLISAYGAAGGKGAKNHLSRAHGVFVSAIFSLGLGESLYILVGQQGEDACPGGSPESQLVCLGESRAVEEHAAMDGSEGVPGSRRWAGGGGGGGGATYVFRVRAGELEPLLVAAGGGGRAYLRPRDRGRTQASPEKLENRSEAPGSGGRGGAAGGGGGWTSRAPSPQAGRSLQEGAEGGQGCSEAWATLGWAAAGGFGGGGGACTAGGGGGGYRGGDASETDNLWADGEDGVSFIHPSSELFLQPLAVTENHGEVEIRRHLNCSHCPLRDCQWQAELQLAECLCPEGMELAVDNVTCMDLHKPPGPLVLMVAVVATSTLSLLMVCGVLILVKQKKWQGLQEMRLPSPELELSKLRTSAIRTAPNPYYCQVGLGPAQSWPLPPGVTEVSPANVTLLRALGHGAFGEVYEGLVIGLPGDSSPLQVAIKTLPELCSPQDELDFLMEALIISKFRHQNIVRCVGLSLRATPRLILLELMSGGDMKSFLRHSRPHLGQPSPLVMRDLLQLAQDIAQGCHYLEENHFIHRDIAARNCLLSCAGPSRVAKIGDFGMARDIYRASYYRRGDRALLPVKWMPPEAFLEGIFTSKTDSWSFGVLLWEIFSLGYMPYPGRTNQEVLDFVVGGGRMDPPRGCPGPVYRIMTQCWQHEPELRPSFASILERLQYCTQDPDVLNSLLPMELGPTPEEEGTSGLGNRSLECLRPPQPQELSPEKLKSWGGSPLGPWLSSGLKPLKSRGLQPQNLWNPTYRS
Observed: enzyme activity
Action: inhibitor
Method: radiometric
Concentration: 0.5 µM
SMILES	remaining activity
CN(C)c1ccc(C=C2C(=O)Nc3ccccc32)cc1	96.8%
O=C1NC(=O)C(c2cn(CCCn3ccnc3)c3ccccc23)=C1Nc1ccccc1	93.4%
Cc1nc(-c2ccccc2)c(-c2ccncc2)o1	107%
Cn1sc(=O)n(Cc2ccccc2)c1=O	101%
O=C1NC(=O)C(c2cn(CCCO)c3ncccc23)=C1c1cnccn1	90.9%
Cc1cccc(-c2[nH]c(C(C)(C)C)nc2-c2ccc3c(c2)OCO3)n1	99.2%
O=c1cc(N2CCNCC2)oc2c(-c3ccccc3)cccc12	96.9%
O=C(CCCc1ccc(-c2ccccc2F)cc1)Nc1ccc(O)cc1	106%
CC(C)[C@H](CO)Nc1nc(Nc2cc(N)cc(Cl)c2)c2ncn(C(C)C)c2n1	103%
COc1ccc2c(c1)/C(=C/c1cnc[nH]1)C(=O)N2	93.6%
Oc1ccc(-c2nc(-c3ccncc3)c(-c3ccc(F)cc3)[nH]2)cc1	97.1%
CO[C@H]1C[C@@H]2CC[C@@H](C)[C@@](O)(O2)C(=O)C(=O)N2CCCC[C@H]2C(=O)O[C@H]([C@H](C)C[C@@H]2CC[C@@H](O)[C@H](OC)C2)CC(=O)[C@H](C)/C=C(\C)[C@@H](O)[C@@H](OC)C(=O)[C@H](C)C[C@H](C)/C=C/C=C/C=C/1C	107%
Cc1ccc(NC(=O)c2ccc(CN3CCN(C)CC3)cc2)cc1Nc1nc(-c2cccnc2)cs1	102%
COC(=O)[C@]1(O)C[C@@H]2O[C@@]1(C)n1c3ccccc3c3c4c(c5c6ccccc6n2c5c31)C(=O)NC4	9.78%
O=C(Nc1cccc(Nc2cc(Nc3cccc(C(F)(F)F)c3)ncn2)c1)C1CC1	96.8%

Study 3
Target: Calcium/calmodulin-dependent protein kinase type II subunit alpha (CAMK2A, Homo sapiens, UniProt Q9UQM7)
Sequence of UniProt Q9UQM7 (whole entry, looked up): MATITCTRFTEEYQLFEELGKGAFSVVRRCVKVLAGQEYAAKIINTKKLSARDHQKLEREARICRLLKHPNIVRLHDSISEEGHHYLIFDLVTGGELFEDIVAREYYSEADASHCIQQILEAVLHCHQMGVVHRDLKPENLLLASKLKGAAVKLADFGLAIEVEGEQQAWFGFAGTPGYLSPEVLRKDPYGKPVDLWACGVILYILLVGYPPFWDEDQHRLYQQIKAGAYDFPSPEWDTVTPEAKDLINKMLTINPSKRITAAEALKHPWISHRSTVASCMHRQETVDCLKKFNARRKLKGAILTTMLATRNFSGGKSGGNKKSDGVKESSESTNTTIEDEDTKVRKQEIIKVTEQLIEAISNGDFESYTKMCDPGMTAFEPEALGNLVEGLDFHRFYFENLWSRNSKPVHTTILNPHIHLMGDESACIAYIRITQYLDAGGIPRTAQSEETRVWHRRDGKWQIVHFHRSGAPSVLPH
Observed: enzyme activity
Action: inhibitor
Concentration: 10 µM
SMILES	inhibition
C=C[C@H]1[C@H](O[C@@H]2O[C@H](CO)[C@@H](O)[C@H](O)[C@H]2O)OC=C2C(=O)OCC[C@H]21	-9%
c1cc2c(cc1[C@H]1OC[C@H]3[C@@H]1CO[C@@H]3c1ccc3c(c1)OCO3)OCO2	29%
C1=C2CCCN[C@H]2[C@@H]2C[C@H]1[C@H]1CCCCN1C2	8%

Single results of other studies
HLA class I histocompatibility antigen, A alpha chain allele A*26:01: HLA class I histocompatibility antigen, A alpha chain, allele A*26:01 (Homo sapiens, UniProt P04439)
Substance	target	test	test system	setting	quantity	value
MTYKAAVL	HLA class I histocompatibility antigen, A alpha chain allele A*26:01	peptide-MHC binding	peptide	concentration not given	binding	inactive
N#CN1CC[C@@H](C(=O)Nc2nc3c(s2)CN(C(=O)CN=[N+]=[N-])CC3)C1	CHRM1 (Homo sapiens, UniProt P11229)	binding, radioligand binding		10 µM	inhibition	24.4%
QIIKLLPF	HLA class I histocompatibility antigen, A alpha chain allele A*26:01	peptide-MHC binding	peptide	concentration not given	binding	inactive
Cc1nc(N2CC[C@@H](O)C2)ncc1-c1cc(C(F)(F)F)cc2[nH]ncc12	HTR2A (Homo sapiens, UniProt P28223)	cell-free assay		10 µM	inhibition	-5.62%

Repeated from above (single results of other studies):
Substance	target	test	test system	setting	quantity	value
Cc1nc(N2CC[C@@H](O)C2)ncc1-c1cc(C(F)(F)F)cc2[nH]ncc12	HTR2A (Homo sapiens, UniProt P28223)	cell-free assay		10 µM	inhibition	-5.62%
N#CN1CC[C@@H](C(=O)Nc2nc3c(s2)CN(C(=O)CN=[N+]=[N-])CC3)C1	CHRM1 (Homo sapiens, UniProt P11229)	binding, radioligand binding		10 µM	inhibition	24.4%
QIIKLLPF	HLA class I histocompatibility antigen, A alpha chain allele A*26:01	peptide-MHC binding	peptide	concentration not given	binding	inactive
MTYKAAVL	HLA class I histocompatibility antigen, A alpha chain allele A*26:01	peptide-MHC binding	peptide	concentration not given	binding	inactive
